Published values from different studies.
Each line is one published result; not all experiments were run side by side. Numbers after ± are the reported error.
Cell line: HepG2

Compound | test | system | conditions | scale | endpoint | value
CC(=O)c1ccc(OCCc2cccc(F)c2)c(C(N)=O)c1 |  | galactose medium | 3 (unit not given) |  | CC50 | > 100 µM
N.N.[Cl][Pt][Cl] |  |  | maximum tested, 24 h | reference: vehicle | relative survival | 48%
O=S(=O)(c1ccc(-c2ccc3nccc(Nc4ccc(OCc5cccc(F)c5)cc4)c3c2)cc1)N1CCOCC1 | cytotoxicity, MTT |  | 48 h |  | TC50 | > 5 µM
Cc1cscc1-c1ccc(OCCc2cccc(F)c2)c(C(N)=O)c1 |  | galactose medium | 3 (unit not given) |  | CC50 | 31 ± 4 µM
N#Cc1cnc2ccc(-c3cccc(N4CCOCC4)c3)cc2c1Nc1ccc(OCc2cccc(F)c2)c(Cl)c1 | cytotoxicity, MTT |  | 48 h |  | TC50 | > 15 µM
O=S(=O)(c1ccc(-c2ccc3nccc(Nc4ncc(Cl)cn4)c3c2)cc1)N1CCOCC1 | cytotoxicity, MTT |  | 48 h |  | TC50 | > 20 µM
CN1CCN(S(=O)(=O)c2ccc(-c3ccc4c(Nc5ccc(OCc6cccc(F)c6)c(Cl)c5)ccnc4c3)cc2)CC1 | cytotoxicity, MTT |  | 48 h |  | TC50 | > 4 µM
COc1ccc(Nc2ccnc3ccc(-c4ccc(S(=O)(=O)N5CCOCC5)cc4)cc23)cc1Cl | cytotoxicity, MTT |  | 48 h |  | TC50 | > 20 µM
CN1CCN(S(=O)(=O)c2ccc(-c3ccc4ccnc(Nc5ccc(OCc6cccc(F)c6)c(Cl)c5)c4c3)cc2)CC1 | cytotoxicity, MTT |  | 48 h |  | TC50 | > 15 µM
O=S(=O)(c1ccc(-c2ccc3nccc(Nc4cccnc4)c3c2)cc1)N1CCOCC1 | cytotoxicity, MTT |  | 48 h |  | TC50 | > 20 µM
O=c1ccc2ccccc2o1 | cell membrane permeability |  | concentration not given, 6 h, necrosis and apoptosis panel |  | chance response | 0.17%
Fc1cccc(COc2ccc(Nc3nccc4cc(-c5cccc(N6CCOCC6)c5)ccc34)cc2Cl)c1 | cytotoxicity, MTT |  | 48 h |  | TC50 | > 15 µM
Cc1cscc1-c1ccc(OCCc2cc(F)cc(F)c2)c(C(N)=O)c1 |  | galactose medium | 3 (unit not given) |  | CC50 | 37 ± 2 µM
CN(C)N=O |  |  | maximum tested, 24 h | reference: vehicle | relative survival | 98%
CCc1ccc(OCCc2cccc(F)c2)c(C(N)=O)c1 |  |  | 3 (unit not given), glucose medium |  | CC50 | 26 ± 0.47 µM
O=S(=O)(c1ccc(-c2ccc3nncc(Nc4ccc(OCc5ccccc5)c(Cl)c4)c3c2)cc1)N1CCOCC1 | cytotoxicity, MTT |  | 48 h |  | TC50 | > 15 µM
NC(=O)c1cc(-c2cccs2)ccc1OCCc1cccc(F)c1 |  | galactose medium | 3 (unit not given) |  | CC50 | 10 ± 1.7 µM
[Cl][Cd][Cl] |  |  | maximum tested |  | micronucleated cells | 1.7%
Cc1cnnc(Nc2ccnc3ccc(-c4ccc(S(=O)(=O)N5CCOCC5)cc4)cc23)c1 | cytotoxicity, MTT |  | 48 h |  | TC50 | > 20 µM
CNC(=O)c1cc(C(F)F)ccc1OCCc1cccc(F)c1 |  |  | 3 (unit not given), human |  | CC50 | 73 ± 28 µM

Excerpt of the above:
Compound | test | system | conditions | scale | endpoint | value
O=S(=O)(c1ccc(-c2ccc3nccc(Nc4ncc(Cl)cn4)c3c2)cc1)N1CCOCC1 | cytotoxicity, MTT |  | 48 h |  | TC50 | > 20 µM
CNC(=O)c1cc(C(F)F)ccc1OCCc1cccc(F)c1 |  |  | 3 (unit not given), human |  | CC50 | 73 ± 28 µM
Cc1cscc1-c1ccc(OCCc2cccc(F)c2)c(C(N)=O)c1 |  | galactose medium | 3 (unit not given) |  | CC50 | 31 ± 4 µM
